Results pooled from the literature.
Parts stem from different laboratories: compare values within a part only. Positions count from the first letter of the parent shown.

Study 1 — technique: protein-binding microarray; molecule type: double-stranded DNA, one strand shown; matrix: in vitro; concentration: not given; direction: higher = stronger binding
Target: Protein max, full length (MAX, Homo sapiens, UniProt P61244-2, residues 1-151)
Setting: k-mer, scored over probes, only values ≥0.25
The E-score of `CCTCCCAC` is reported as 0.268.
`CATTCACG` has an E-score of 0.251.
`ATGCTACC` gave an E-score of 0.254.
For `GCCATGTA`, the E-score was 0.265.
For `CACCTGAC`, the E-score was 0.36.
`CGTGTTCC` has an E-score of 0.373.
With `GCGATCAC` the E-score was 0.272.
For `CGGTCACA`, the E-score was 0.288.
`ACCAGGTG` gave an E-score of 0.372.
`GTGCGCGA` has an E-score of 0.263.
For `CACGAGCA`, the E-score was 0.326.
`GCCCACGA` has an E-score of 0.301.
The E-score of `AGAGCACG` is reported as 0.383.
`AGCATGGG` gave an E-score of 0.407.

Study 2 — technique: universal PBM; molecule type: double-stranded DNA, one strand shown; matrix: in vitro; concentration: not given; direction: higher = stronger binding
Target: Sal-like protein 4, full length isoform B (SALL4, Homo sapiens, UniProt Q9UJQ4-2, residues 1-616)
Setting: 8-mer, flanks averaged, mean of replicates
With `ACGTAACT` the E-score was -0.00974.
`AAAACCGC` gave an E-score of -0.179.
`AACACAAT` has an E-score of 0.26.
`ATGTTGTC` gave an E-score of 0.0904.
`TAATCAAA` gave an E-score of 0.3.
For `CACGCGGA`, the E-score was -0.117.
`ACATCTGA` has an E-score of 0.0674.
`CAGTCCAA` gave an E-score of -0.123.
`ATGGGCAC` gave an E-score of -0.0239.
`CCAGGGTC` has an E-score of -0.305.

Study 3 — target: CCND2, cyclin fold, Cln2 fusion (human); technique: yeast growth competition, sequencing; matrix: yeast; setting: strong parent motif; baseline: not given; direction: higher = stronger binding
Starting sequence: E2F1 docking peptide (human); PPVKRRLDFETDH
`V3G` — result for “normalised enrichment score”: 0.603.
`P2G` — result for “normalised enrichment score”: 1.34.
For `D12N`, “normalised enrichment score” read 1.97.
For `E10P`, “normalised enrichment score” read 0.727.
For `F9W`, “normalised enrichment score” read 0.386.
`R6T`: “normalised enrichment score” 0.64.
`V3E` — result for “normalised enrichment score”: 0.142.
`R6G` — result for “normalised enrichment score”: 0.18.
For `D8N`, “normalised enrichment score” read 1.95.
For `E10D`, “normalised enrichment score” read 2.25.
`F9D`: “normalised enrichment score” -0.0679.
Under “normalised enrichment score”, `V3M` is recorded as 0.674.
Under “normalised enrichment score”, `D12E` is recorded as 2.03.
Under “normalised enrichment score”, `D8Q` is recorded as 1.21.
`F9Y` — result for “normalised enrichment score”: 0.186.
For `E10W`, “normalised enrichment score” read 0.272.
For `K4C`, “normalised enrichment score” read 3.27.
For `R5M`, “normalised enrichment score” read 0.371.
For `D8S`, “normalised enrichment score” read 1.16.
Under “normalised enrichment score”, `E10A` is recorded as 1.57.
For `K4Q`, “normalised enrichment score” read 1.85.
`V3T` — result for “normalised enrichment score”: 1.9.
For `D12V`, “normalised enrichment score” read 1.78.
Under “normalised enrichment score”, `E10G` is recorded as 2.12.
Under “normalised enrichment score”, `T11V` is recorded as 1.66.

Study 4 — technique: aptamer microarray, sandwich; molecule type: DNA with 2'F-ANA; matrix: in vitro; concentration: 200 nM; added: Cy3 exosite-II aptamer, 400 nM; direction: higher = stronger binding; sequence: GGTTGGTGTGGTTGG
Target: Prothrombin, mature alpha-thrombin (F2, Homo sapiens, UniProt P00734)
Setting: whole 15-mer aptamer, many near background
For `2'F-ANA at 1 2 3 6 8 12 13 14`, “mean fluorescence intensity” read 88.6 a.u.
`2'F-ANA at 2 4 5 6 11 12 14` — result for “mean fluorescence intensity”: 45.1 a.u.
Under “mean fluorescence intensity”, `2'F-ANA at 3 4 7 13 14` is recorded as 345 a.u.
For `2'F-ANA at 1 3 5 6 7 8 11 13 14 15`, “mean fluorescence intensity” read 49.3 a.u.
`2'F-ANA at 3 4 5 10 15` — result for “mean fluorescence intensity”: 59.5 a.u.
`2'F-ANA at 3 6 7 8 10`: “mean fluorescence intensity” 561 a.u.
`2'F-ANA at 1 5 6 7 9 12 15`: “mean fluorescence intensity” 97.6 a.u.
`2'F-ANA at 1 4 7 8 12 13` — result for “mean fluorescence intensity”: 270 a.u.
For `2'F-ANA at 1 2 3 4 5 6 9 10 11 12 14 15`, “mean fluorescence intensity” read 51.8 a.u.
`2'F-ANA at 3 4 5 7 10 12 13 15` — result for “mean fluorescence intensity”: 79 a.u.
For `2'F-ANA at 1 2 3 4 5 6 8 9 10 12 15`, “mean fluorescence intensity” read 84.1 a.u.
`2'F-ANA at 1 2 8 9 10 14 15`: “mean fluorescence intensity” 49.5 a.u.
For `2'F-ANA at 1 2 4 7 8 12`, “mean fluorescence intensity” read 385 a.u.
Under “mean fluorescence intensity”, `2'F-ANA at 1 3 5 6 7 9 10 12 14` is recorded as 48.4 a.u.
Under “mean fluorescence intensity”, `2'F-ANA at 3 4 7 8 10 12 13 15` is recorded as 298 a.u.

Repeated from above (study 4):
For `2'F-ANA at 1 2 4 7 8 12`, “mean fluorescence intensity” read 385 a.u.
`2'F-ANA at 3 4 5 7 10 12 13 15` — result for “mean fluorescence intensity”: 79 a.u.
Under “mean fluorescence intensity”, `2'F-ANA at 3 4 7 8 10 12 13 15` is recorded as 298 a.u.
`2'F-ANA at 3 4 5 10 15` — result for “mean fluorescence intensity”: 59.5 a.u.
`2'F-ANA at 2 4 5 6 11 12 14` — result for “mean fluorescence intensity”: 45.1 a.u.
For `2'F-ANA at 1 2 3 4 5 6 8 9 10 12 15`, “mean fluorescence intensity” read 84.1 a.u.
`2'F-ANA at 1 2 8 9 10 14 15`: “mean fluorescence intensity” 49.5 a.u.
`2'F-ANA at 1 4 7 8 12 13` — result for “mean fluorescence intensity”: 270 a.u.
For `2'F-ANA at 1 2 3 4 5 6 9 10 11 12 14 15`, “mean fluorescence intensity” read 51.8 a.u.
`2'F-ANA at 3 6 7 8 10`: “mean fluorescence intensity” 561 a.u.
Under “mean fluorescence intensity”, `2'F-ANA at 1 3 5 6 7 9 10 12 14` is recorded as 48.4 a.u.
